Assay results pooled from the literature.
Each numbered part is a random draw from the data of one study; scales do not carry over between parts. Changes are numbered by the printed parent chain.
UniProt Q9FKM7, sequence (whole entry, looked up): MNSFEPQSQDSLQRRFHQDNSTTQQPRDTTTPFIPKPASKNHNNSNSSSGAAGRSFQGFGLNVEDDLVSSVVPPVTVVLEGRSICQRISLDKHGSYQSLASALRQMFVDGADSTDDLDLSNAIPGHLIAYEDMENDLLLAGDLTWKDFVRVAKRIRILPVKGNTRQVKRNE
UniProt Q9SKN5, sequence (whole entry, looked up): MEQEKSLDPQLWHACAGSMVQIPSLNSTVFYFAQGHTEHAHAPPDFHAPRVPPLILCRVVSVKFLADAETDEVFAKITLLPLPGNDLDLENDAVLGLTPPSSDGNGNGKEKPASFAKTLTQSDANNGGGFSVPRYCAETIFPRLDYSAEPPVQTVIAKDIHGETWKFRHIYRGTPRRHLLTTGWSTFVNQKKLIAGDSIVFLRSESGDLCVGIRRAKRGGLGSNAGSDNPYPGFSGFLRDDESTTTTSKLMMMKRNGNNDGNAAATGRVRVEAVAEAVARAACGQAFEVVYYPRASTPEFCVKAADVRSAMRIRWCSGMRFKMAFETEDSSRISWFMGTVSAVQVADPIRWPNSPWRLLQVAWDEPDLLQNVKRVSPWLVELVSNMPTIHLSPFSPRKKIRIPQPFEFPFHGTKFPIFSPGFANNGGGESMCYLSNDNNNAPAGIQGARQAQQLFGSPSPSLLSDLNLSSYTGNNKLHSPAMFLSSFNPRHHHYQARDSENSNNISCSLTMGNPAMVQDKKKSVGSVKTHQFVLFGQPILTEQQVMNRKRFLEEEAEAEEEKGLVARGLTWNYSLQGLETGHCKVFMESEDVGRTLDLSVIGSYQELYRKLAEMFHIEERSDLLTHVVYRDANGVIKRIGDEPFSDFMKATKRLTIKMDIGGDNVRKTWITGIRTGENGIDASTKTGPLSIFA
UniProt Q9C5X0, sequence (whole entry, looked up): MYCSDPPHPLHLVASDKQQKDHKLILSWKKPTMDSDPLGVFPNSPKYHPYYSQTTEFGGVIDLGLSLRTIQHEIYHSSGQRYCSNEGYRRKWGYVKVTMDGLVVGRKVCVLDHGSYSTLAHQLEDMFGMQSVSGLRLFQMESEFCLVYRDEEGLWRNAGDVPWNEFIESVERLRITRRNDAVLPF
UniProt Q9ZTX9, sequence (whole entry, looked up): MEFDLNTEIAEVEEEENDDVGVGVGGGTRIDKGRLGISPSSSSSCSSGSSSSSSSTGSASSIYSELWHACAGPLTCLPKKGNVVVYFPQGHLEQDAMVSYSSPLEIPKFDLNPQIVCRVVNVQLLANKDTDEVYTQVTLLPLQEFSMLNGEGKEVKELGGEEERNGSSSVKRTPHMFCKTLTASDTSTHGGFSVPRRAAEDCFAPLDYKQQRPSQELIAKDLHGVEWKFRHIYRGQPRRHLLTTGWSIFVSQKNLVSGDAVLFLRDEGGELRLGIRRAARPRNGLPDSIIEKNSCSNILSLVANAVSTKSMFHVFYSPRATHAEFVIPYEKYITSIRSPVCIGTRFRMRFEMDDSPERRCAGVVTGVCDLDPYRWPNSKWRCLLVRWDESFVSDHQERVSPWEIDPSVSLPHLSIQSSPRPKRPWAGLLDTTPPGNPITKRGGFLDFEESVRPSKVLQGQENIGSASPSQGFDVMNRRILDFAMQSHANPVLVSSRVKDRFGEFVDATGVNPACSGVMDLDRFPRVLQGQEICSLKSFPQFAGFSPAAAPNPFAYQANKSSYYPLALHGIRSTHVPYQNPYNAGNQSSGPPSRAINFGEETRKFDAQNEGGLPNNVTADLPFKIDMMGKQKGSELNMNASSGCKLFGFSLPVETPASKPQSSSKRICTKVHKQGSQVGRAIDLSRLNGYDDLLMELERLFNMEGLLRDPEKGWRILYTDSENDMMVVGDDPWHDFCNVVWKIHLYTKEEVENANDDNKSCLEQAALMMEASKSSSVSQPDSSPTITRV
UniProt Q9ZPY6, sequence (whole entry, looked up): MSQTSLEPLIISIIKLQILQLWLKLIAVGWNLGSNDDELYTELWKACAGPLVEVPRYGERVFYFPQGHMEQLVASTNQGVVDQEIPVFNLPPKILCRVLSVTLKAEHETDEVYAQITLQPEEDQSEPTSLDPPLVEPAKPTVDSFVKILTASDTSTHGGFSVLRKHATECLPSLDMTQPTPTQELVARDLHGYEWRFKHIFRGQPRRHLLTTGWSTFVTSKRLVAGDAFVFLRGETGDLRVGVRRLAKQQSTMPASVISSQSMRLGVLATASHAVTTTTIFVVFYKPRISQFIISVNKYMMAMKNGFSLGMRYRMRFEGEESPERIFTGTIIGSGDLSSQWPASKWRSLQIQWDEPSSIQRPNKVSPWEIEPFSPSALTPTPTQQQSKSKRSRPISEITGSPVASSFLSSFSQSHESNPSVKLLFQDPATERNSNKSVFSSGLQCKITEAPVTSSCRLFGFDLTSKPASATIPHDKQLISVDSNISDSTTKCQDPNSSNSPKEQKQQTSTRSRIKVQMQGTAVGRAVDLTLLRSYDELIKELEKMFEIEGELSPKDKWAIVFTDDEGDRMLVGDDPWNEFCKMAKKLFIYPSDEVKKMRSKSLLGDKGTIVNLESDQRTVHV

Study 1
Target: CEBPE, bZIP domain (human)
Technique: DHFR protein complementation
Matrix: yeast
Notes: single substitutions, most at no-binding floor
Reference: wild-type JUN-FOS pair
Reading: higher = stronger binding
Endpoint: binding fitness
Starting sequence: JUN, bZIP domain (human); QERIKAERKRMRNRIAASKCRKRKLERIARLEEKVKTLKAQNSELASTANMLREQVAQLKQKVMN; partner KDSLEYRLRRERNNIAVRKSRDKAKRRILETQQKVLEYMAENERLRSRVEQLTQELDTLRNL
A57R: -1.24 natural log
N42H: -1.33 natural log
A57V: -1.23 natural log
L31W: -1.33 natural log
R30E: -0.742 natural log
V56T: -1.43 natural log
N42Y: -1.44 natural log
K39M: -1.16 natural log
V35T: -1.42 natural log
A46R: -0.929 natural log
E33M: -1.32 natural log
E33R: -1.22 natural log
L31A: -1.34 natural log
E54K: -1.35 natural log
K34S: -1.3 natural log
T37W: -1.02 natural log
A46W: -1.25 natural log
K34R: -0.941 natural log
A40C: -1.31 natural log
E32D: -1.2 natural log
Q58T: -0.969 natural log
A57S: -1.27 natural log

Study 2
Target: Interferon regulatory factor 5, full length, phosphomimetic (IRF5, Homo sapiens, UniProt Q13568-2, residues 1-514, S451D/S453D/S456D/S462D)
Technique: protein-binding microarray
Form: double-stranded DNA, one strand shown
Matrix: in vitro
Concentration: 940 nM top
Notes: 60-bp whole probe
Added: salmon DNA 0.4 mg/ml
Reference: random background probes
Reading: higher = stronger binding
Endpoint: fitted relative affinity
Shared flanks, not repeated: GCCTAGCAC … GTCTTGATTCGCTTGACGCTGCTG
GACGGTACCCTTTTCCTGACGTGCTAG: 0.315 z-score
GACGGACTGGACTATCGGGACGTGCTA: -0.424 z-score
AATCAACTTTTTTTAATTGAGTGCTAG: 0.447 z-score
TTAGGTTCCGGTTTTGGTTAGTGCTAG: 4.08 z-score
CTTTAACTCATTTTCATTTTGTGCTAG: 1.6 z-score
GCCATTTTCCCTCCCTAATTGTGCTAG: 1.29 z-score
AACGAACTGAGTTTCGAGACGTGCTAG: 3.25 z-score
TCACATTTTGGTTTTCAACTGTGCTAG: 0.797 z-score
TCAGAATTTACTTTCTAACTGTGCTAG: 0.323 z-score
TTAGGACGGCTTTTCCTTTAGTGCTAG: -0.222 z-score
ACTCATTTTCGTTTTGTGTCGTGCTAG: 2.69 z-score
TTAGATCTCGGGTATCGATTAGTGCTA: 3.2 z-score
TTAGGTTTCGGTCTCGGTTGGTGCTAG: 15.5 z-score
TCAGATCTCAGACTGTGACTGTGCTAG: -0.293 z-score
CTGTGTTTCCTTGTACGTCGGTGCTAG: 0.639 z-score
GACGGAATCCTTCTCCTGACGTGCTAG: -0.345 z-score
TTAGGTTTCCTCATCCTTTAGTGCTAG: 1.41 z-score
GACGATTTCAGTTCCGACACGTGCTAG: 0.961 z-score
TCAAATTTTGTCATCTAACTGTGCTAG: -0.167 z-score
TTTTTTTTCTAACTAAAAATGTGCTAG: 0.562 z-score
GGGTGAATGTGTCTTAAATAGTGCTAG: 0.0948 z-score
GACGGACCGGACTTTCGGGACGTGCTA: 0.337 z-score
CTAGAACTGGGGTTTCGATTAGTGCTA: 4.9 z-score
TATTTTTTTCTAATTGAAATGTGCTAG: 0.32 z-score
TCAATTGTCTCTGTCCCACTGTGCTAG: 1.4 z-score

Study 3
Target: PABPC1L2, full length, GST fusion (mouse, UniProt A0ABA7IW68)
Technique: RNAcompete
Form: RNA
Matrix: in vitro
Concentration: 20 nM
Notes: 7-mer, probes averaged, single round
Reference: mean of 7-mers
Reading: higher = stronger binding
Endpoint: 7-mer Z-score
Construct (chain): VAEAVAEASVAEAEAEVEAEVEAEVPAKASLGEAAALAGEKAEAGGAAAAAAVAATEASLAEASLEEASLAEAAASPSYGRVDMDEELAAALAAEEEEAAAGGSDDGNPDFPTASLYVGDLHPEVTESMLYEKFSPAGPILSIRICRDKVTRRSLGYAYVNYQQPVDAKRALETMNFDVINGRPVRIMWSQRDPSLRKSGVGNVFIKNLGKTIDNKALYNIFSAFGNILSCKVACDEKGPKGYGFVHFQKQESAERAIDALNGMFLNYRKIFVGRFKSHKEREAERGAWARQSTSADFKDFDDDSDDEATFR
CUAAUGU: -0.213
GUUAACA: -0.0881
AAGGUGU: 0.0986
CACCUGU: -0.405
GUAUCAG: -0.177
AUAAUUA: -0.0156
UUUGGUU: -0.302
AGUAUAG: -0.0264
CGUCAUC: -0.258
UUGGAGU: -0.238
GAAAAUU: 2.97
GCCAGUC: -0.296
UGAAAUA: 0.244
AGGCUGG: 0.331
UACAGCA: -0.0881
UCUGGGU: -0.168
CUAGAUC: -0.104
UCCUAAG: -0.266
UUAAUAU: -0.117
UCGUAAU: -0.403
GCGGAUG: 0.0696
GUCUCGG: -0.135
AGUCACU: -0.126
CCAGCCU: -0.472

Study 4
Molecule: B1 (IAA5)
Technique: two-hybrid
Reference: out of 4 tests
Reading: higher = firmer interaction
Endpoint: positive tests
B1: IAA5 (Arabidopsis thaliana, UniProt P33078); chain MANESNNLGLEITELRLGLPGDIVVSGESISGKKRASPEVEIDLKCEPAKKSQVVGWPPVCSYRRKNSLERTKSSYVKVSVDGAAFLRKIDLEMYKCYQDLASALQILFGCYINFDDTLKESECVPIYEDKDGDWMLAGDVPWEMFLGSCKRLRIMKRSCNRG
IAA34 (Arabidopsis thaliana, UniProt Q9C5X0): 4
IAA33 (Arabidopsis thaliana, UniProt Q9FKM7): 2
ARF10 575-693 (Arabidopsis thaliana, UniProt Q9SKN5): 2
ARF11 500-622 (Arabidopsis thaliana, UniProt Q9ZPY6): 0
ARF4 660-788 (Arabidopsis thaliana, UniProt Q9ZTX9): 2

Study 5
Target: RNA binding protein fox-1 homolog 2, RRM domain, GST-SBP tag (RBFOX2, Homo sapiens, UniProt O43251-10, residues 100-194)
Technique: RNA Bind-n-Seq
Form: RNA
Matrix: in vitro
Concentration: 365 nM
Notes: natural RNA segment, single round, ends assumed
Reference: no-protein control
Reading: higher = stronger binding
Endpoint: RBNS enrichment (R)
Shared flanks, not repeated: GGGAGUUCUACAGUCCGACGAUC … UGGAAUUCUCGGGUGCCAA
Construct (chain): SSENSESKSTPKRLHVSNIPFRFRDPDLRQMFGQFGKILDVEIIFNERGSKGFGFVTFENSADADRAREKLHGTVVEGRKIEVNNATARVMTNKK
UAAUUUUUAACCAGAUAAGGCUUUCUAUGCAUCCACAGGUGCCUUUGUUUUAACUGUGGAUUUAUUGAUUGCUAACCUCUACAGAUAUGAUGAUAGGGCAAGCAUUCUUC: 8.33
GCCAUCCCUGCACACAGCCUGGGGAGAAGCCUGUGCCUCCCCGUGUGGAGAGAAGGCAACCCCAGAUCCCCUGAGCUAACCCGGAGGAAAGGCAGUCCUGGACAGAAGAC: 0.665
GUGACACCCUGGACCCUGGAUGCUGCUUUCUAAAGUGCACCUGAUCCAUGCAGUUUUAUGUCUUCAUAUAACUGGUAUCUUGUGAGUUUGCAAGCAAUGGGAUGAGCAAG: 0.666
CCUCUCUGCUCCCCUGCCUAGUGGGGUGGUAGUGGCUACCUCUCAGCCCCAAUAGUCCCUGCUCCUCUUAGAAUCUUCACCAAGUGGCAGGCCACCUCUGGGCAGGACCA: 0.331
CGCGUCCUGUAGCUAGAGGCUCGAACCUACCAGCCCGCGACCGCCACCCACCCAGCGGUAUUGGAAGUGGCGACCAGGGGUGACCCGUCGUGGAGCCACUUCUCGCACUG: 0.196
AAGAGGAUAUUUGUCAUUUCCUUAAGGCUCUGGAGUGUUGUGUUCGAUUCUGCACAGCCCAGCCUCCCCGAGGGCCUUUCCAAGCACAGUGGGGAUUUCUUAGAACAGGA: 0.287
AGGUCCACCGUCUCCCCUCCCCUCAUUUGUAAGAAUAGCUACACACUAACAUUUUGGGAAGGAGAGGCACAUAACUUUUUUUAACAUUUGGUAACUAGGUUAUGGGCUCU: 0.43
UCUACCCUGUCCUUUGCAAUUGCUCUUCUCCACGUCUUUCCUGCUACAAGUGUUUUAGAUGUUACUACCUUAUUUUCCCCGAAUUCUAUUUUUGUCCUUGCAGACAGAAU: 1.31
CCAAGUACUACACCUUAUUUGGUCGCAGCUACUGAGGGAUGAACGAAAGCCCCCUCUUCAACUCCUCUCACUUUUUAAAGCAUUGAUAUUAGUAUCUUCUCAGAUACAGA: 0.626
GUUAAGAUGCAGGCUUUGCAUAUCACCAGGUCACUUAGAAUAUUCUAACAGUUACUCUGAAGAUGUGUCAUGAUUUGUGAGCCUUUGGAUCUGGGUAAAUAGAGGACAAA: 0.291
CAGGGUUACUUAUGUCAUUGACAGGGAAAAGACUUUGUAUAAACAAUUAUGCACCAUCUAUUUUUGUACUCUUACUCAUGAUCCAUUUAAAAGUCUACUCAGCUCUAGAU: 0.487
CAAAAAAACAAUGUUAUUACUUGUAAAUUAAAAUUUAAGAGCCAUUAGCUAGAUAAACCAUGUGCUAUUCCCACCCUUUACCUGCAGUAAAUUUUAAACAAUAAUUUUAA: 0.604

Study 6
Target: CCNB2, cyclin fold, Cln2 fusion (human)
Technique: yeast growth competition, sequencing
Matrix: yeast
Notes: weak parent motif
Reference: not given
Reading: higher = stronger binding
Endpoint: normalised enrichment score
Starting sequence: CDAN1 docking peptide (human); RGARSQLFPPTEA; partner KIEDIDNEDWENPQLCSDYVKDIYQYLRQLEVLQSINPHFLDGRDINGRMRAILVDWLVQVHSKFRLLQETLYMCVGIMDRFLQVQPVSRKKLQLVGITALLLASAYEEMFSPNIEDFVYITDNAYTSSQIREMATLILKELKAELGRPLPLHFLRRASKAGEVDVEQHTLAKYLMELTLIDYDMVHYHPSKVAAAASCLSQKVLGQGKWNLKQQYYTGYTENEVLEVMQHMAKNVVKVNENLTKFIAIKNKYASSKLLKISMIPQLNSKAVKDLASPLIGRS
E12A: 0.195
F8A: 0.801
G2A: 0.154
T11A: 0.0173
S5A: 0.488
R4A: -0.082

Mixed results
PhoQ, residues 284 288 289 292 302 303 NLCILV — fold induction (PhoP, residues 12 14 15 18 19 SEGLL (Escherichia coli, UniProt P23836); Sort-seq, item: YFP reporter; E. coli; PhoQ-PhoP variant library, added: 10 µM Mg2+; reference: high Mg2+ state, higher = stronger signaling): 16.6

Some of these lines once more (study 2):
TCAGATCTCAGACTGTGACTGTGCTAG: -0.293 z-score
CTGTGTTTCCTTGTACGTCGGTGCTAG: 0.639 z-score
GACGGAATCCTTCTCCTGACGTGCTAG: -0.345 z-score
TTAGGTTTCCTCATCCTTTAGTGCTAG: 1.41 z-score
GACGATTTCAGTTCCGACACGTGCTAG: 0.961 z-score
